Measured values collected from several papers.
Compare with care: the assays were run in different laboratories. ± gives the spread as reported.

COc1ccccc1-c1cc2ccc(N(C)C)cc2nc1N — result for “secreted Par-4 level”: 86 ± 12.2 (mouse fibroblasts; Western blot; conditioned medium; 500 nM, 24 h, unit not given; reference: Col1A1).
`fMLF analogue`: “pinocytic pool depletion rate constant” 0.198 min⁻¹ (rabbit polymorphonuclear leukocytes; 2 x 10 to 8 M, 30 min, 37 °C).
The inhibition of CON=Cc1c(-c2ccccc2)[nH]c2ccccc12 is reported as 97.2% (RAW264.7; NO release, inhibitor, Griess; 50 µM, 20 h, LPS-stimulated).
The cell viability of CNCCCN1c2ccccc2CCc2ccccc21 is reported as 2.5 fold (hiPSC-derived cardiomyocytes; 3 µM, 72 h, 24 h pretreatment, added: doxorubicin 10 µM; reference: doxorubicin alone).
Cn1c(-c2ccccc2)cc2ccccc21 has a viability of 74.3 ± 6.2% (RAW264.7; sulforhodamine B; 50 µM, 20 h; reference: vehicle).
For N=C(N)NCCC[C@H](NC(=O)[C@@H]1CSSC[C@H](NC(=O)[C@H](Cc2ccc3ccccc3c2)NC(=O)[C@H](CCCNC(=N)N)NC(=O)[C@H](CCCNC(=N)N)NC(=O)CN2CCN(CC(=O)O)CCN(CC(=O)O)CC2)C(=O)N[C@@H](Cc2ccc(O)cc2)C(=O)N[C@@H](CCCNC(N)=O)C(=O)N[C@@H](CCCCN)C(=O)N[C@H](CCCCN)C(=O)N2CCC[C@H]2C(=O)N[C@@H](Cc2ccc(O)cc2)C(=O)N[C@@H](CCCNC(=N)N)C(=O)N[C@@H](CCCNC(N)=O)C(=O)N1)C(N)=O [fluorine-18 labelled], the cell uptake was 44.5 ± 2.41% (CHO expressing CXCR4; 2 h, 37 °C; reference: added radioactivity).
NC(=O)Cn1cc(COc2ccccc2-c2nc(-c3ccccc3)no2)nn1 gave a mRNA level of 0.45 ± 0.001 fold (Caco-2; qPCR, refers to: PI3K; IC50, 24 h; reference: untreated cancer cells).
O=[N+]([O-])C(Br)=Cc1ccc(Br)o1 has a selectivity index of 14.1 (KB; mean of three Leishmania species; reference: KB CC50 over Leishmania IC50).
For COc1cccc2c1C(=O)c1c(O)c3c(c(O)c1C2=O)C[C@@](O)(C(=O)CO)C[C@@H]3O[C@H]1C[C@H](N)[C@H](O)[C@H](C)O1, the mRNA level was 7.9 ± 0.03 fold (Caco-2; qPCR, refers to: p53; IC50, 24 h; reference: untreated).
The viability of CN(C)c1ccc(-c2cc3ccccc3[nH]2)cc1 is reported as 60.9 ± 4% (RAW264.7; sulforhodamine B; 50 µM, 20 h; reference: vehicle).
For NNC(=O)Cn1cc(COc2ccccc2-c2nc(-c3ccccc3)no2)nn1, the mRNA level was 0.43 ± 0.02 fold (Caco-2; qPCR, refers to: PI3K; IC50, 24 h; reference: untreated cancer cells).
With Nc1ccc(-c2cc3ccccc3[nH]2)cc1 the inhibition was 86.1% (RAW264.7; NO release, inhibitor, Griess; 50 µM, 20 h, LPS-stimulated).

Excerpt of the above:
O=[N+]([O-])C(Br)=Cc1ccc(Br)o1 has a selectivity index of 14.1 (KB; mean of three Leishmania species; reference: KB CC50 over Leishmania IC50).
